Results gathered from unrelated publications.
Parts stem from different laboratories: compare values within a part only.
Chain of UniProt Q9C0B0 (30-357, looked up): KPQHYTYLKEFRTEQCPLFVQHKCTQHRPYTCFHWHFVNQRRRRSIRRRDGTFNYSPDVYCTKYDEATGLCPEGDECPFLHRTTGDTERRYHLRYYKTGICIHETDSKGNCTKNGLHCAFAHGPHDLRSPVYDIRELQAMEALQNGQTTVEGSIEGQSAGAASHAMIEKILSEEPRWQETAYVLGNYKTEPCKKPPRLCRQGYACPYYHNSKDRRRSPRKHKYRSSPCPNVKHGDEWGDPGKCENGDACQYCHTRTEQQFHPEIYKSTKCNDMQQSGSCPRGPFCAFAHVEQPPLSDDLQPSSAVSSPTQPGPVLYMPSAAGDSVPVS

Series 1
Target: Histone acetyltransferase KAT6A, winged helix 1, GST fusion (KAT6A, Homo sapiens, UniProt Q92794, residues 1-85)
Method: protein binding microarray
Molecule type: double-stranded DNA, one strand shown
Matrix: in vitro
Concentration: not given
Setting: 8-mer, flanks averaged, mean of 2 arrays, mostly near background
Reference: not given
Direction: higher = stronger binding
Residues (chain): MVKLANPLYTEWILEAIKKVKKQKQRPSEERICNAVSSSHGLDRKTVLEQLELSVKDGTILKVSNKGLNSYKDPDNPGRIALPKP
Oligonucleotide | E-score
CATACGAA | -0.0305
GGCGGCCA | 0.24
ATAGGGGC | -0.0006

Mixed results
Fmr1 C-terminal low-complexity region: Fragile X messenger ribonucleoprotein 1, C-terminal low-complexity region (Fmr1, Mus musculus, UniProt P35922)
Molecule | target | assay | system | setting | scale | quantity | result
GGGAGUUCUACAGUCCGACGAUCACCAUGCAGGUGGGCAUCUUUGGGAAGUGGGGCAAGGGGGGGAUAGGGAGGGGGGUAACACUUUAGGAACAGGUGGUCCCAGGUCGUUUCUGGAAUUCUCGGGUGUCAAGG (7-deaza-guanosine replaces G) | Fmr1 C-terminal low-complexity region | RNA Bind-n-Seq | RNA, in vitro | 200 nM, whole 134-nt RNA, ends assumed, together with: 150 mM LiCl | reference: input library, higher = stronger binding | log2 enrichment | 1.4
GGGAGUUCUACAGUCCGACGAUCCAGUCCCCGUGUCCCAGUGCAGGACGAUGUGAACAAAAACUCAAAGCGGCCCUUUCUUUGUAGUUCUUGAUUCUCGAAAUGUGCUAUUGUUUUUAAACUUUUUUUUUUUUUUUUUAAAGACAACAGAGGAUUGAGCAUCA | RING finger protein unkempt homolog, zinc fingers 1-6, GST-SBP tag (UNK, Homo sapiens, UniProt Q9C0B0, residues 30-357) | RNA Bind-n-Seq | RNA, in vitro | not given, RNA with constant flanks, human-mouse chimeric sites, ends assumed | reference: input RNA pool, higher = stronger binding | bound/input enrichment | 0.684 ratio
GGGAGUUCUACAGUCCGACGAUCCUGUGCUACACAUCGUAUGUACCGAAUCGGGGCCCCCCGGGGCCCCCCGGGGCCCCCCGGGGAAAGUAUUAUGUUACGCCGUUCGGAUCUUGGAAUUCUCGGGUGUCAAGG (7-deaza-guanosine replaces G) | Fmr1 C-terminal low-complexity region | RNA Bind-n-Seq | RNA, in vitro | 200 nM, whole 134-nt RNA, ends assumed, together with: 150 mM LiCl | reference: input library, higher = stronger binding | log2 enrichment | -3.04
AGATGTCC | Sal-like protein 4, full length isoform B (SALL4, Homo sapiens, UniProt Q9UJQ4-2, residues 1-616) | universal PBM | double-stranded DNA, one strand shown, in vitro | not given, 8-mer, flanks averaged, mean of replicates | higher = stronger binding | E-score | -0.0862
PhoQ, residues 284 288 289 292 302 303 SLSLLA | PhoP, residues 12 14 15 18 19 LHSVQ (Escherichia coli, UniProt P23836) | Sort-seq, refers to: YFP reporter | E. coli | PhoQ-PhoP variant library, together with: 10 µM Mg2+ | reference: high Mg2+ state, higher = stronger signaling | fold induction | 17

Excerpt of the above (mixed results):
Molecule | target | assay | system | setting | scale | quantity | result
PhoQ, residues 284 288 289 292 302 303 SLSLLA | PhoP, residues 12 14 15 18 19 LHSVQ (Escherichia coli, UniProt P23836) | Sort-seq, refers to: YFP reporter | E. coli | PhoQ-PhoP variant library, together with: 10 µM Mg2+ | reference: high Mg2+ state, higher = stronger signaling | fold induction | 17
